Experimental data gathered from unrelated publications.
Lines come from different studies, so protocols differ. ± gives the spread as reported.

Compound | cell line | assay | system | conditions | IC50
C=C1C(=O)[C@@]23CC[C@@H]4C(C)(C)CCC[C@@]4(COC(C)=O)[C@@H]2[C@@H](O)C[C@@H]1C3 (single isomer, unassigned) | HBE | cell growth or viability, MTT | – | – | 9.6 µM
Cc1cc(C=O)cc(C)c1Oc1cc(Nc2ccc(C#N)cn2)nc2ccncc12 | HuCC-A1 | – | – | 48 h | > 126 µM
Cc1cnc(Nc2cc(C)c(C)c(C)c2)nc1Nc1ccc2oc(=O)[nH]c2c1 | human CD4+ T cells | STAT6 phosphorylation, flow cytometry | – | added: IL-4 | 0.0214 µM
CCC(C)C1OC(=O)C(C)(C)C(=O)C(Cc2ccccc2)OC(=O)C(C(C)C)OC(=O)C(NC(=O)c2cccc(O)c2)C(C)OC1=O (stereo not shown) | HCT-8/T taxol-resistant | cell viability, CCK-8 | – | 72 h | > 20 µM
Nc1ccc(/C=C/C(=O)N2CCc3c(oc4c(-c5ccc(F)cc5)cc(-c5ccc(NC(=O)[C@@H]6CCCO6)nn5)cc34)C2)cn1 | U2OS | cell growth or viability, CCK-8 | – | 72 h | ~3 µM
C=C[CH2][Pd-]([Cl])[Cl].CC(C)c1cccc(C(C)C)c1-n1c[n+](-c2c(C(C)C)cccc2C(C)C)c2c1-c1cccc3cccc-2c13 | 2008 spheroids | cell viability, APH | 3D spheroids | 72 h | 27 ± 7 µM
COc1ccc2c(c1)c(CC(=O)Nc1nnc(CCCCc3ccc(NC(=O)Cc4cccc(OC(F)(F)F)c4)nn3)[se]1)cn2C | H22 | cell growth, inhibitor, EZMTT | – | 120 h | 1.8 to 2.9 µM
CC(=O)O[C@@H]1CC[C@@]2(C)[C@@H](CC[C@]3(C)[C@@H]2C(=O)C=C2[C@@H]4[C@@H](C)[C@H](C)CC[C@]4(C)CC[C@]23C)[C@@]1(C)C(=O)NCCNC(=O)CCCCCCC[P+](c1ccccc1)(c1ccccc1)c1ccccc1 | HBE | cell growth or viability, MTT | – | 48 h | 11.3 µM
CCCCCCCCC=CCCCCCCCC(=O)OCC1OC(n2ccc(N)nc2=O)C(F)(F)C1O (stereo not shown) | Molt4/C8 | cell growth or viability | – | – | 0.088 µM
N#C/C(=C\c1cn(-c2ccccc2)nc1-c1ccc(Cl)cc1)c1nc2ccccc2[nH]1 | SW1990 | cell growth or viability, ATP luminescence | – | 72 h | > 100 µM
CC(C)c1cccc(C(C)C)c1-n1c(Cl)c(Cl)n(-c2c(C(C)C)cccc2C(C)C)c1=[Se].[Cl][Au] | human ovarian cancer cells | cell viability, MTT | – | 72 h | 1.4 ± 0.2 µM
CC(=O)O[C@@H]1CC[C@@]2(C)[C@@H](CC[C@]3(C)[C@@H]2C(=O)C=C2[C@@H]4[C@@H](C)[C@H](C)CC[C@]4(C)CC[C@]23C)[C@@]1(C)C(=O)NCCNC(=O)CCCCCCCCCCBr | HBE | cell growth or viability, MTT | – | 48 h | > 30 µM
OC[C@H]1[C@@H](O)[C@@H](O)CN1Cc1ccc(Br)cc1 | U2OS | cell growth or viability, MTS | – | 72 h | 189 µM
O=C1NCC(Cc2ccccc2)N(CC2CCCN2CC(CC2CCCCC2)N2CC(Cc3ccc(O)cc3)N(CCc3ccccc3)C(=O)C2=O)C1=O (stereo not shown) | human primary adult melanocytes | viability | – | 72 h | > 100 µM
CCCC(CCC)C(=O)[O][Pt]([NH2])([NH2])([Cl])([Cl])[O]C(=O)C(Cl)Cl | BCPAP | cell growth or viability, MTT | – | 72 h | 0.01 µM
N=C(N/N=C/c1cc2ccccc2c2ccccc12)N/N=C/c1cc2ccccc2c2ccccc12 | KP-4 | cell growth or viability, crystal violet | – | 72 h | 139 µM
O=C1Nc2ccc(-c3ccc4cc(O)ccc4c3)cc2/C1=C/c1ccc(N2CCNCC2)cc1 | NIH3T3 | cell growth or viability, WST-1 | – | 48 h | 0.283 µM
COc1ccc2cc3[n+](cc2c1OCc1cn(Cc2cccc(Br)c2)nn1)CCc1cc2c(cc1-3)OCO2 | SW1990 | cell growth or viability, MTT | – | – | 50.5 µM
CCCCCCCCCCCCCCCCn1c(-c2cccnc2)nc(-c2ccc(C)cc2)c1-c1ccc(C)cc1 | L929 | cell growth or viability, SRB | – | – | 409 µM
